Assay results of several laboratories.
± marks the error that the study gave.
Sample: plasma

Cc1ccccc1-c1cc(N2CC[N+](C)([O-])CC2)ncc1N(C)C(=O)C(C)(C)c1cc(C(F)(F)F)cc(C(F)(F)F)c1
Tmax (healthy volunteers; oral, dose not given, netupitant-palonosetron fixed-dose combination): 4.67 h

NC(=O)c1cnc2[nH]ccc2c1NC1C2CC3CC1CC(OS(=O)(=O)O)(C3)C2 (stereo not shown)
Tmax (median) (Japanese adults, mild hepatic impairment; oral, 150 mg single dose): 1.75 h

COc1cc(C)c(Cc2ccc(O)cc2)cc1[C@@H]1S[C@H](CO)[C@@H](O)[C@H](O)[C@H]1O
Tmax (Japanese T2DM patients; 2.5 mg luseogliflozin, day 7, once daily): 2.75 ± 1.13 h

CC(C)(Sc1ccncc1-c1ccc(C#N)c2ccccc12)C(=O)OC1OC(C(=O)O)C(O)C(O)C1O (stereo not shown)
Tmax (oral, 15 mg, moderate renal impairment, fasted): 2 h

CN1CCN(c2cc(-c3ccccc3CO)c(N(C)C(=O)C(C)(C)c3cc(C(F)(F)F)cc(C(F)(F)F)c3)cn2)CC1
Tmax (cancer patients; oral, dose not given, netupitant-palonosetron single dose, range of means): 12.3 to 16 h

CC(=O)N[C@H](CC(=O)O)C(=O)N[C@H](Cc1c[nH]c2ccccc12)C(=O)N[C@H](Cc1ccccc1)C(=O)N[C@H](CCCCN)C(=O)N[C@H](C)C(=O)N[C@H](Cc1ccccc1)C(=O)N[C@H](Cc1ccc(O)cc1)C(=O)N[C@H](CC(=O)O)C(=O)N[C@H](CCCCN)C(=O)N[C@@H](C(=O)N[C@H](C)C(=O)N[C@H](CCC(=O)O)C(=O)N[C@H](CCCCN)C(=O)N[C@H](Cc1ccccc1)C(=O)N[C@H](CCCCN)C(=O)N[C@H](CCC(=O)O)C(=O)N[C@H](C)C(=O)N[C@H](Cc1ccccc1)C(N)=O)C(C)C
Tmax (statin-treated high-risk CHD patients; oral, 300 mg daily, day 13, median, detected subjects): 2 h

Cn1cc(C(N)=O)c(NC2C3CC4CC2CC(O)(C4)C3)c2ccnc1-2 (stereo not shown)
Tmax (median) (Japanese adults, mild hepatic impairment; oral, 150 mg single dose): 4 h

CC(C)(Sc1cc[n+]([O-])cc1-c1ccc(C#N)c2ccccc12)C(=O)OC1OC(C(=O)O)C(O)C(O)C1O (stereo not shown)
Tmax (oral, 15 mg, mild renal impairment, fasted): 3 h

Cc1ccccc1-c1cc(N2CCNCC2)ncc1N(C)C(=O)C(C)(C)c1cc(C(F)(F)F)cc(C(F)(F)F)c1
Tmax (cancer patients; oral, dose not given, netupitant-palonosetron single dose, range of means): 12 to 16.9 h

Cn1cc(C(N)=O)c(NC2C3CC4CC2CC(OS(=O)(=O)O)(C4)C3)c2ccnc1-2 (stereo not shown)
Tmax (median) (Japanese adults, normal hepatic function; oral, 150 mg single dose): 3 h
